Results pooled from the literature.
Protocols differ between the studies behind these lines. Numbers after ± are the reported error.
VHL with elongin B/C: von Hippel-Lindau disease tumor suppressor, with elongin B/C (VHL, Homo sapiens, UniProt P40337)
Sequence of UniProt P40337 (whole entry, looked up): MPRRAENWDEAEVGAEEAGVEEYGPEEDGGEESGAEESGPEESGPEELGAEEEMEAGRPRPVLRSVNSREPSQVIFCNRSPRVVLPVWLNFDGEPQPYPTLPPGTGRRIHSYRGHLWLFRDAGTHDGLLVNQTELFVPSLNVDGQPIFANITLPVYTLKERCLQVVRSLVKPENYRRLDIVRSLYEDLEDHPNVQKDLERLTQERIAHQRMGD
IFIT1: Antiviral innate immune response effector IFIT1 (IFIT1, Homo sapiens, UniProt P09914)
Sequence of UniProt P09914 (whole entry, looked up): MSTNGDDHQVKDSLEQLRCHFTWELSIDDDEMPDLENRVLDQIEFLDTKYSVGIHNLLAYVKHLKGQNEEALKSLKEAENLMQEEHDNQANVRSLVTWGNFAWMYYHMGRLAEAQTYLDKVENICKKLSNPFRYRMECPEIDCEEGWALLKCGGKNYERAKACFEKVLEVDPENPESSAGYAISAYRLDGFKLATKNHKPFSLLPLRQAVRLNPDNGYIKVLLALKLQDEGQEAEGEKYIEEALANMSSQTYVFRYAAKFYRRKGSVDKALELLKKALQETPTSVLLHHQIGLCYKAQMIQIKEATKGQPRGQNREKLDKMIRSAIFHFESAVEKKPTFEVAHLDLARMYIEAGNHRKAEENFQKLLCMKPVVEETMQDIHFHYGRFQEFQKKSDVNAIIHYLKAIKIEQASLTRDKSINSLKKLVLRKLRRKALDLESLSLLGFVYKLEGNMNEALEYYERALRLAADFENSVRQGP
Sequence of UniProt P02754 (whole entry, unmodified, looked up): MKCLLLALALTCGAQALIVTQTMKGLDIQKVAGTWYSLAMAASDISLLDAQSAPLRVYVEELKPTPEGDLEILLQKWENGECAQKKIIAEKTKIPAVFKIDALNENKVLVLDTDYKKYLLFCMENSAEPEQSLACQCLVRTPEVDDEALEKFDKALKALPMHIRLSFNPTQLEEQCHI
Sequence of UniProt P20273 (whole entry, looked up): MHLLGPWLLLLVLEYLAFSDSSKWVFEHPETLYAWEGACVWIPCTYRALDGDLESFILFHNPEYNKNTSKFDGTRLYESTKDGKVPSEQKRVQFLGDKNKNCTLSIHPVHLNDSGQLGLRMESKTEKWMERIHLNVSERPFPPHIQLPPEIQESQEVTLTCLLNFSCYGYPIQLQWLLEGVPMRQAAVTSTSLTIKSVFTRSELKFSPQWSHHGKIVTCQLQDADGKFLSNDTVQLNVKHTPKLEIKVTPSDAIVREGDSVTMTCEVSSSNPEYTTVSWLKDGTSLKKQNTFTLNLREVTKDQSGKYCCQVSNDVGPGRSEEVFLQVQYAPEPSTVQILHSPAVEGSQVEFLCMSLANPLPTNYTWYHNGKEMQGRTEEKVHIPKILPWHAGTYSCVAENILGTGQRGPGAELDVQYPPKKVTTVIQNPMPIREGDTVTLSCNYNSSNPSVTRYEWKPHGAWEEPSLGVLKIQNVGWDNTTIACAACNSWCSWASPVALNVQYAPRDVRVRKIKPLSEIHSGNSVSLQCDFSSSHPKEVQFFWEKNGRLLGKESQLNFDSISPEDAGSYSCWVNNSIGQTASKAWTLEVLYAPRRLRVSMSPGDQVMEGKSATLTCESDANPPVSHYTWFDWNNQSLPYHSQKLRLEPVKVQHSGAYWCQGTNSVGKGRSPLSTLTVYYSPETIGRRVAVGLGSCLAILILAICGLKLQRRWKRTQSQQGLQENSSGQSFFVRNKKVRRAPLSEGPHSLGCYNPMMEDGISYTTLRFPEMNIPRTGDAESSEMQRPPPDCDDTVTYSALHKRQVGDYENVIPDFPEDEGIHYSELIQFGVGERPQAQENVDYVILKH
Sequence of UniProt Q13572 (whole entry, looked up): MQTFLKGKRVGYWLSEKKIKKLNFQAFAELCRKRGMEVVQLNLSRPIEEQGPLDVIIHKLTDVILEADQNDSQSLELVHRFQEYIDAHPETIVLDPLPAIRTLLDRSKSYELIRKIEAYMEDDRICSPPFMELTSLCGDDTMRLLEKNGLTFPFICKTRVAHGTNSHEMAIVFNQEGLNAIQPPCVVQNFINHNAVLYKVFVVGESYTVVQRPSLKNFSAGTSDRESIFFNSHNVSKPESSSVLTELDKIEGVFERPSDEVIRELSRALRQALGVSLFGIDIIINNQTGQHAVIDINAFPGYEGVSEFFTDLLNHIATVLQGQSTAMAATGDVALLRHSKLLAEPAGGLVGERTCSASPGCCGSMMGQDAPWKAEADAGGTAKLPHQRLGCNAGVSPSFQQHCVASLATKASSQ
Sequence of UniProt Q9SZU7 (whole entry, unmodified, looked up): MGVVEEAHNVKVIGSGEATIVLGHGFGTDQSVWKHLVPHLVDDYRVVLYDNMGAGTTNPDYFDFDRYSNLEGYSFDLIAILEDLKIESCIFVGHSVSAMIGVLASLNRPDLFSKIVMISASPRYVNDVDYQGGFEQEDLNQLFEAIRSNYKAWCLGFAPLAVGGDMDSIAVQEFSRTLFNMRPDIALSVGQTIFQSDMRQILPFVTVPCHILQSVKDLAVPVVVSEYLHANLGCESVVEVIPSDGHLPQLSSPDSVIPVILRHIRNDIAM
Sequence of UniProt Q9SCZ4 (whole entry, unmodified, looked up): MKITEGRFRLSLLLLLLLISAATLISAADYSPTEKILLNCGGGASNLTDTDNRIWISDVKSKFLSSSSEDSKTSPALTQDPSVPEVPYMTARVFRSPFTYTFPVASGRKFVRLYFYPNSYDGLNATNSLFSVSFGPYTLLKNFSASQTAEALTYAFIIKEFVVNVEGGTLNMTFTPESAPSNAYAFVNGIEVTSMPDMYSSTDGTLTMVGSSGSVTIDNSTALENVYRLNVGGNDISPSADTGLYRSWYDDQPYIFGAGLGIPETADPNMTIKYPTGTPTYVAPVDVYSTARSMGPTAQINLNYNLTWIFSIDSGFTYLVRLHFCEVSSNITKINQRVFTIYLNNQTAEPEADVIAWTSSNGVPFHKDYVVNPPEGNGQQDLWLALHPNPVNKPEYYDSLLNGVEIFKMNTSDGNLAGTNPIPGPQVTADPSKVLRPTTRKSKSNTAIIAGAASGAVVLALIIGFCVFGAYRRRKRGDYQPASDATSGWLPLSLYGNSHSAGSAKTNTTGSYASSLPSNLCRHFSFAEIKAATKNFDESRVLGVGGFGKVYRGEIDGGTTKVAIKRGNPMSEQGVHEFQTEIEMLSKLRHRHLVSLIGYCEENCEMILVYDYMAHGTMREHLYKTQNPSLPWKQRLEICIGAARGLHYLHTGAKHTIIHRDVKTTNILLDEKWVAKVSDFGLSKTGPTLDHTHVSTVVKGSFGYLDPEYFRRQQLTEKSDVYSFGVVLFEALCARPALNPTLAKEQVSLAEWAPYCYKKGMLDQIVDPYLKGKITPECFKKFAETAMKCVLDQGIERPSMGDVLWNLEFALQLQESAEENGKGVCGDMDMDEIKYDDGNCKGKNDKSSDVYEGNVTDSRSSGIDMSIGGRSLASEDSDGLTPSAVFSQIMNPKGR
Sequence of UniProt P00915 (whole entry, looked up): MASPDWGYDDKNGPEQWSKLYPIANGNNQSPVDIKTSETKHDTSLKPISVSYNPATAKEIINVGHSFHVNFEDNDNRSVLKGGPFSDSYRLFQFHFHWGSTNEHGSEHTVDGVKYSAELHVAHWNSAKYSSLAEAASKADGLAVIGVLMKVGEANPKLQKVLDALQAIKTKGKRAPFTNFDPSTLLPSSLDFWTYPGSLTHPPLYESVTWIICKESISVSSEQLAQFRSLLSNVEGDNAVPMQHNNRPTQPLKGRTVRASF
Sequence of UniProt Q9BYT3 (whole entry, looked up): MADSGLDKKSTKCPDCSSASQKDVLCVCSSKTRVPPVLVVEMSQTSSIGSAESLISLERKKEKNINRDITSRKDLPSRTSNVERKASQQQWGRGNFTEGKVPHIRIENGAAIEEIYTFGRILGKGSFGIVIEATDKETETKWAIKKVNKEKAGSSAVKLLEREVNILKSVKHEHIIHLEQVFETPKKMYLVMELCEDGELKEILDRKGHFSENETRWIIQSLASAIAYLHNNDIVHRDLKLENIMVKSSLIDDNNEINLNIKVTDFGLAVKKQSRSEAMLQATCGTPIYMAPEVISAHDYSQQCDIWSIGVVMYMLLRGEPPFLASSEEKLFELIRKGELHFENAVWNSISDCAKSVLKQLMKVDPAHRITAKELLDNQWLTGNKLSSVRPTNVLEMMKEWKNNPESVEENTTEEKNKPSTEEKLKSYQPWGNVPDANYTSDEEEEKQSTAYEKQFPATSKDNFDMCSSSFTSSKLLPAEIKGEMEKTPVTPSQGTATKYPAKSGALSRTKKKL
Sequence of UniProt Q99572 (whole entry, unmodified, looked up): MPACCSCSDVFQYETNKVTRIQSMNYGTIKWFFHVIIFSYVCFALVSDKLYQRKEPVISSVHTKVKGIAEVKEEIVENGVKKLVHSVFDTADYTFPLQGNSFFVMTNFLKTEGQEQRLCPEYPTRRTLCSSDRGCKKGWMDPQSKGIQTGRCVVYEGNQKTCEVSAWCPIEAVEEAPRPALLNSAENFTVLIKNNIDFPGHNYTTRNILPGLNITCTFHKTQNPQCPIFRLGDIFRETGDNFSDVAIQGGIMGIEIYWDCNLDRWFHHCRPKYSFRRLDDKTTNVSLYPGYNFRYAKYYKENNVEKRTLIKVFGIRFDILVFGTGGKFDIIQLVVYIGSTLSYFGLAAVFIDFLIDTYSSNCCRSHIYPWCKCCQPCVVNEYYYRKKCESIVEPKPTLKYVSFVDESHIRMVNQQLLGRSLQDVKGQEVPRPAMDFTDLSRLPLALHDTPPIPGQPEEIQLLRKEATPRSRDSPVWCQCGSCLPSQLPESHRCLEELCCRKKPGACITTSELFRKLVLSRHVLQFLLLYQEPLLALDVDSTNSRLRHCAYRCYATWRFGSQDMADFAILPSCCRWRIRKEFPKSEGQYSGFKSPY
Sequence of UniProt Q96CN7 (whole entry, looked up): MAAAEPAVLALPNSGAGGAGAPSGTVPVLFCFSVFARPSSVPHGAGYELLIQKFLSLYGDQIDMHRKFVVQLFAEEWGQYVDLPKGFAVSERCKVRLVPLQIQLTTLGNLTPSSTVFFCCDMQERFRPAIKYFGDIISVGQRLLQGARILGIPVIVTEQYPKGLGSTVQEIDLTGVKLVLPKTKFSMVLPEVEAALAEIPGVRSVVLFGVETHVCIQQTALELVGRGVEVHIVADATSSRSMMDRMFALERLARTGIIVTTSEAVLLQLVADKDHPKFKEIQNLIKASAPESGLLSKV

`c1ccc(COc2[nH]cnc3ncnc2-3)cc1` has a Kd of 2.6 ± 1 µM (Inositol-tetrakisphosphate 1-kinase (Homo sapiens, UniProt Q13572); binding).
`C#CCN1CCN(c2nc(N3CCN(c4ccc(Cc5cc(CNC(=O)[C@@H]6C[C@@H](O)CN6C(=O)[C@@H](NC(=O)C6(F)CC6)C(C)(C)C)c(O)cc5-c5scnc5C)cc4)CC3)nc(N3CCN(C(=O)C4CC4)C3)n2)CC1=O` gave a Kd of 0.185 µM (VHL with elongin B/C; binary binding, SPR).
`Cc1c[nH]c2nccc(-c3ccc(C(=O)N[C@@H]4c5c(F)cc(C(F)F)cc5C[C@@H]4O)cn3)c12` has a Kd of 0.42 µM (STK33 (Homo sapiens, UniProt Q9BYT3); binding, competition with immobilised ligand).
The Kd of `CCN(CC)CCCC[C@H](NC(=O)[C@H](CC(C)C)NC(=O)[C@H](C)NC(=O)[C@H](Cc1ccccc1)NC(=O)c1ccc(C(C)(C)C)cc1)C(=O)N[C@@H](CO)C(=O)O` is reported as 0.41 µM (Chromobox protein homolog 7 (Homo sapiens, UniProt O95931); binding, ITC).
The Kd of `CO[C@@H]1[C@H](OP(=O)(O)OC[C@H]2O[C@@H](n3cnc4c(=O)[nH]c(N)nc43)[C@H](O)[C@@H]2O)[C@@H](COP(=O)(O)OP(=O)([O-])OP(=O)(O)OC[C@H]2O[C@@H](n3c[n+](C)c4c(O)nc(N)nc43)[C@H](O)[C@@H]2O)O[C@H]1n1cnc2c(N)ncnc21` is reported as 380 µM (IFIT1; binding, microscale thermophoresis; pH 7.5).
`O=C(O)[C@H]1O[C@@H](O[C@H]2[C@H](O)[C@H](O)[C@H](O[C@H]3[C@H](O)[C@H](O)[C@H](O)O[C@@H]3C(=O)O)O[C@H]2C(=O)O)[C@@H](O)[C@@H](O)[C@@H]1O[C@@H]1O[C@@H](C(=O)O)[C@@H](O)[C@H](O)[C@@H]1O` gave a Kd of 222 µM (Beta-lactoglobulin (LGB, Bos taurus, UniProt P02754, A134V/G80D); isothermal titration calorimetry; pH 4.00, 37 °C, 50 mM KH2PO4).
`Cc1c2ccnc(C(=O)N[C@H](C)CN(C)C)c2cc2c3cc(OCCCN4CCN(C)CC4)ccc3n(C)c12` has a Kd of 1.13 ± 0.46 µM (r(G4C2)8 G-quadruplex RNA; binding, microscale thermophoresis; together with: K+).
For `NS(=O)(=O)c1cc(C(=O)NCCCC(=O)O)c(NC2CCCCC2)cc1Cl`, the Kd was over 200 µM (CA1 (Homo sapiens, UniProt P00915); pH 7).
`CCc1nc2cc3ccccc3cc2cc1C(=O)N1CCC[C@H]1C(=O)N[C@@H](C/C=C\C[C@H](NC(=O)[C@@H]1CCCN1C(=O)c1cc2cc3ccccc3cc2nc1CC)C(=O)N[C@@H](CCCCN)C(=O)NCCCN)C(=O)N[C@@H](CCCCN)C(=O)NCCCN` gave a Kd of 0.056 µM (CUG–CAG duplex RNA; SPR).
`CN(C)c1nc(O)c2c(n1)n([C@@H]1O[C@H](COP(=O)(O)OP(=O)([O-])OP(=O)(O)OC[C@H]3O[C@@H](n4cnc5c(N)ncnc54)[C@H](O)[C@@H]3OP(=O)(O)OC[C@H]3O[C@@H](n4cnc5c(=O)[nH]c(N)nc54)[C@H](O)[C@@H]3O)[C@@H](O)[C@H]1O)c[n+]2C` has a Kd of 0.03 µM (IFIT1; binding, microscale thermophoresis; pH 7.5).
With `CC(=O)N1c2ccc(-c3ccc(CNC(=O)c4cn5cc(-c6cnc(N)nc6)nc(N6CCOCC6)c5n4)cc3)cc2CC[C@@H]1C` the Kd was 0.083 µM (Bromodomain testis-specific protein, BD1 (BRDT, Homo sapiens, UniProt Q58F21); binding, competition with immobilised ligand).
With `CC(=O)NCCN(c1nc(N2CC3C(CCOc4cc(-c5scnc5C)ccc4CNC(=O)[C@@H]4C[C@@H](O)CN4C(=O)[C@@H](NC(=O)C4(F)CC4)C(C)(C)C)C3C2)nc(N2CC(n3ccnc3)C2)n1)C(C)C` (some centres unmarked) the Kd was 0.034 µM (VHL with elongin B/C; binary binding, SPR).
The Kd of `Cc1cccc2c1N(C(=O)n1ccnn1)CC2` is reported as 14 µM (KAI2 (Arabidopsis thaliana, UniProt Q9SZU7, A219S); ITC; A219S mutant, mean).
With `C[n+]1cn([C@@H]2O[C@H](COP(=O)(O)OP(=O)([O-])OP(=O)(O)OC[C@H]3O[C@@H](n4cnc5c(N)ncnc54)[C@H](O)[C@@H]3OP(=O)(O)OC[C@H]3O[C@@H](n4cnc5c(=O)[nH]c(N)nc54)[C@H](O)[C@@H]3O)[C@@H](O)[C@H]2O)c2nc(N)nc(O)c21` the Kd was 0.1 µM (IFIT1; binding, microscale thermophoresis; pH 7.5).
The Kd of `CC(=O)N[C@H]1[C@H]([C@H](O)[C@H](O)CNC(=O)c2ccc(-c3ccccc3)cc2)O[C@@](OCc2cccc(Cl)c2Cl)(C(=O)O)C[C@@H]1O` is reported as 0.63 µM (CD22 (Homo sapiens, UniProt P20273); binding, ITC).
For `CC(=O)c1cnc2ccc(-c3cc(Cl)c(O)c(Cl)c3)nc2c1N[C@H]1CC[C@H](CN(C)C)CC1`, the Kd was 1.1 µM (Receptor-like protein kinase FERONIA (FER, Arabidopsis thaliana, UniProt Q9SCZ4, K565A); binding, SPR; mutant protein).
`O=C(c1ccc([125I])cc1)N1CCC(n2cncc2-c2ccc(OS(=O)(=O)c3cccc4cnccc34)cc2)CC1` gave a Kd of 0.00186 µM (P2X purinoceptor 7 (P2RX7, Homo sapiens, UniProt Q99572); binding, radioligand; cell membranes).
With `CNc1ncnc2c1ncn2[C@@H]1O[C@H](COP(=O)(O)OP(=O)([O-])OP(=O)(O)OC[C@H]2O[C@@H](n3c[n+](C)c4c(O)nc(N)nc43)[C@H](O)[C@@H]2O)[C@@H](OP(=O)(O)OC[C@H]2O[C@@H](n3cnc4c(=O)[nH]c(N)nc43)[C@H](O)[C@@H]2O)[C@H]1OC` the Kd was 3800 µM (IFIT1; binding, microscale thermophoresis; pH 7.5).
With `CCc1nc2cc3ccccc3cc2cc1C(=O)N[C@@H](CCCCN)C(=O)N[C@@H](C/C=C/C[C@H](NC(=O)[C@H](CCCCN)NC(=O)c1cc2cc3ccccc3cc2nc1CC)C(=O)N1CCC[C@H]1C(=O)NCCCN)C(=O)N1CCC[C@H]1C(=O)NCCCN` the Kd was 0.0706 µM (CUG–CAG duplex RNA; SPR).
`CNc1ncnc2c1ncn2[C@@H]1O[C@H](COP(=O)(O)OP(=O)([O-])OP(=O)(O)OC[C@H]2O[C@@H](n3c[n+](C)c4c(O)nc(N)nc43)[C@H](O)[C@@H]2O)[C@@H](OP(=O)(O)OC[C@H]2O[C@@H](n3cnc4c(=O)[nH]c(N)nc43)[C@H](O)[C@@H]2O)[C@H]1O` has a Kd of 0.23 µM (IFIT1; binding, microscale thermophoresis; pH 7.5, 70 nt capped RNA).
`Cc1ncsc1-c1ccc2c(c1)OCCOCCOC[C@@H](NC(=O)C[C@@H]1N=C(c3ccc(Cl)cc3)c3c(sc(C)c3C)-n3c(C)nnc31)COCCOCCOCC(=O)N[C@@H](C(C)(C)C)C(=O)N1C[C@H](O)C[C@H]1C(=O)NC2` gave a Kd of 0.065 µM (von Hippel-Lindau disease tumor suppressor, with Elongin B/C (VHL, Homo sapiens, UniProt P40337)).
For `C[n+]1cn([C@@H]2O[C@H](COP(=O)(O)OP(=O)([O-])OP(=O)(O)OC[C@H]3O[C@@H](n4ccc(=O)[nH]c4=O)[C@H](O)[C@@H]3OP(=O)(O)OC[C@H]3O[C@@H](n4cnc5c(=O)[nH]c(N)nc54)[C@H](O)[C@@H]3O)[C@@H](O)[C@H]2O)c2nc(N)nc(O)c21`, the Kd was 0.13 µM (IFIT1; binding, microscale thermophoresis; pH 7.5, 70 nt capped RNA).
`CC(C)C[C@@H]1NC(=O)[C@H](CC(C)C)NC(=O)[C@H](CC(N)=O)NC(=O)[C@@H]2CCCN2C(=O)[C@H](CC(C)C)NC(=O)[C@H](CC(C)C)NC(=O)[C@H](CC(C)C)NC(=O)[C@@H](NC(=O)[C@H](CO)NC(=O)[C@H](CC(N)=O)NC(=O)[C@@H](N)C(C)C)CSSC[C@@H](C(=O)NCC(=O)N[C@@H](CC(=O)O)C(=O)N[C@@H](CC(=O)O)C(=O)N[C@@H](CCCCNC(=O)CCCC[C@@H]2SC[C@@H]3NC(=O)N[C@@H]32)C(=O)NCCCCCC(=O)NCCCCCC(=O)NCCCCCC(=O)NCCCCCC(=O)NCCCCCC(=O)N[C@@H](CCCCNC(=O)CCCCc2cn(CCCC[C@H](NC(=O)N[C@@H](CCC(=O)O)C(=O)O)C(=O)O)nn2)C(=O)NCC(N)=O)NC(=O)CNC1=O` has a Kd of 0.3 µM (human FcγRI; bead phagocytosis, ternary complex model fit; together with: PSMA 80 pM, FcγRI 800 pM).
For `O=C(NO)c1cnc(NC2(c3cccc(F)c3)CCCCC2)nc1`, the Kd was over 30.2 µM (Isochorismatase domain-containing protein 1 (Homo sapiens, UniProt Q96CN7); inhibitor, competition pulldown; SW620 and MV4-11 lysate; 1 h).
With `Cc1ncsc1-c1ccc(CNC(=O)[C@@H]2C[C@@H](O)CN2C(=O)[C@@H](NC(=O)C2(F)CC2)C(C)(C)C)c(OCCC2CN(c3nc(NCC(C)(C)C4(O)CCOC4)nc(N4CCC[C@H]4Cn4ccnn4)n3)C2)c1` (some centres unmarked) the Kd was 0.011 µM (VHL with elongin B/C; binary binding, SPR).
The Kd of `Cc1cc2nc3c(=O)[nH]c(=O)nc-3n(C[C@H](O)[C@H](O)[C@H](O)COP(=O)(O)OP(=O)(O)OC[C@H]3O[C@@H](n4cnc5c(N)ncnc54)[C@H](O)[C@@H]3OP(=O)(O)OC[C@H]3O[C@@H](n4cnc5c(=O)[nH]c(N)nc54)[C@H](O)[C@@H]3O)c2cc1C` is reported as 0.08 µM (IFIT1; binding, microscale thermophoresis; pH 7.5, 70 nt capped RNA).

A few entries again:
`CN(C)c1nc(O)c2c(n1)n([C@@H]1O[C@H](COP(=O)(O)OP(=O)([O-])OP(=O)(O)OC[C@H]3O[C@@H](n4cnc5c(N)ncnc54)[C@H](O)[C@@H]3OP(=O)(O)OC[C@H]3O[C@@H](n4cnc5c(=O)[nH]c(N)nc54)[C@H](O)[C@@H]3O)[C@@H](O)[C@H]1O)c[n+]2C` has a Kd of 0.03 µM (IFIT1; binding, microscale thermophoresis; pH 7.5).
With `CC(=O)N1c2ccc(-c3ccc(CNC(=O)c4cn5cc(-c6cnc(N)nc6)nc(N6CCOCC6)c5n4)cc3)cc2CC[C@@H]1C` the Kd was 0.083 µM (Bromodomain testis-specific protein, BD1 (BRDT, Homo sapiens, UniProt Q58F21); binding, competition with immobilised ligand).
With `CC(=O)NCCN(c1nc(N2CC3C(CCOc4cc(-c5scnc5C)ccc4CNC(=O)[C@@H]4C[C@@H](O)CN4C(=O)[C@@H](NC(=O)C4(F)CC4)C(C)(C)C)C3C2)nc(N2CC(n3ccnc3)C2)n1)C(C)C` (some centres unmarked) the Kd was 0.034 µM (VHL with elongin B/C; binary binding, SPR).
The Kd of `Cc1cccc2c1N(C(=O)n1ccnn1)CC2` is reported as 14 µM (KAI2 (Arabidopsis thaliana, UniProt Q9SZU7, A219S); ITC; A219S mutant, mean).
